# Measured values pooled from the literature.
# ± gives the spread as reported.
# SLCO1B3: Solute carrier organic anion transporter family member 1B3 (SLCO1B3, Homo sapiens, UniProt Q9NPD5)
# UniProt Q9NPD5, sequence (whole entry, looked up): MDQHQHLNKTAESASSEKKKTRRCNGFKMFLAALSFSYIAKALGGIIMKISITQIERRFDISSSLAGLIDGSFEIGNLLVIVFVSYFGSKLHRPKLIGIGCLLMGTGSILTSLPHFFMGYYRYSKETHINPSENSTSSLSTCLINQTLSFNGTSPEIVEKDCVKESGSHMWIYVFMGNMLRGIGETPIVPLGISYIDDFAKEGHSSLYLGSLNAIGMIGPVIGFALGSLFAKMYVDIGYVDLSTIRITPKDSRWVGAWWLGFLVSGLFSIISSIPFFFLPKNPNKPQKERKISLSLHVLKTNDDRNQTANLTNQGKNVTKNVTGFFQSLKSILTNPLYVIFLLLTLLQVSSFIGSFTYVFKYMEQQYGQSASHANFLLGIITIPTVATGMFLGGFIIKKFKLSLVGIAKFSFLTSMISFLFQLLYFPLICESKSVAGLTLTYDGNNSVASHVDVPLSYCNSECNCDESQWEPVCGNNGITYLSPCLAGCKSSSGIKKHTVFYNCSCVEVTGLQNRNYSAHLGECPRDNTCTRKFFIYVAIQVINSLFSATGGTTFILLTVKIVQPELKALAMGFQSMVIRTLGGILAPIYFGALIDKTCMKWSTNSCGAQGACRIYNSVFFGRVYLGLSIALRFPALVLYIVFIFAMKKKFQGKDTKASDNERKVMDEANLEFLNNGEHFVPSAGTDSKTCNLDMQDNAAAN
# CYP3A4: Cytochrome P450 3A4 (CYP3A4, Homo sapiens, UniProt P08684)
# UniProt P08684, sequence (whole entry, looked up): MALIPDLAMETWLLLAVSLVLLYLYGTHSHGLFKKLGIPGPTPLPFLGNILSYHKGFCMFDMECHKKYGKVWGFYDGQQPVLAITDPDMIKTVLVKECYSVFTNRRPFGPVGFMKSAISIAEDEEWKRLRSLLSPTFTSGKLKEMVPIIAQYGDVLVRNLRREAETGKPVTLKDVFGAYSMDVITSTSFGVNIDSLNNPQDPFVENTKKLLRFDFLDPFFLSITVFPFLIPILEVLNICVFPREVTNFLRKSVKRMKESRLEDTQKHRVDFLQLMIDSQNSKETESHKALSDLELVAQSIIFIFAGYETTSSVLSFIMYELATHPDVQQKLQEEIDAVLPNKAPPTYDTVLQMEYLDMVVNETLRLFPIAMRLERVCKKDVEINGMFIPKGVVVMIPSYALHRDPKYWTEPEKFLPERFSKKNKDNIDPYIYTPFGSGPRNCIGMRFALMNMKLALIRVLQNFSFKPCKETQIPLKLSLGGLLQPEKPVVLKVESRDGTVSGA
# UniProt P08835, sequence (whole entry, looked up): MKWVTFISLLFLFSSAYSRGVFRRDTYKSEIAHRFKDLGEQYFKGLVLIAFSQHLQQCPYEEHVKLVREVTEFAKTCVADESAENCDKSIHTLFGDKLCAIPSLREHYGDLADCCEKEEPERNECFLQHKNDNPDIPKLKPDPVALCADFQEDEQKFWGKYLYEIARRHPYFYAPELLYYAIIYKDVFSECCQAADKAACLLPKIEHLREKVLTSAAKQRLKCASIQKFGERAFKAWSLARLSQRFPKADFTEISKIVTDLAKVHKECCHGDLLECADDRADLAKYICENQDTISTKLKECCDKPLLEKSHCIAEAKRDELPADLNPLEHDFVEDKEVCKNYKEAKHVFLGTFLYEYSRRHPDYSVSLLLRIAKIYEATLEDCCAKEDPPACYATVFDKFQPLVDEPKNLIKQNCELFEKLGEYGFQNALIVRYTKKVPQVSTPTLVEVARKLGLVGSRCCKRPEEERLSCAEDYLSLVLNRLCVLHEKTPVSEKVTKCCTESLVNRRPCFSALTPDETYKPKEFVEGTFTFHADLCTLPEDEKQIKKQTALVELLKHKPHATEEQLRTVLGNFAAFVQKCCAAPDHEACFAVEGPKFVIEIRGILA
# UniProt P61073, sequence (whole entry, looked up): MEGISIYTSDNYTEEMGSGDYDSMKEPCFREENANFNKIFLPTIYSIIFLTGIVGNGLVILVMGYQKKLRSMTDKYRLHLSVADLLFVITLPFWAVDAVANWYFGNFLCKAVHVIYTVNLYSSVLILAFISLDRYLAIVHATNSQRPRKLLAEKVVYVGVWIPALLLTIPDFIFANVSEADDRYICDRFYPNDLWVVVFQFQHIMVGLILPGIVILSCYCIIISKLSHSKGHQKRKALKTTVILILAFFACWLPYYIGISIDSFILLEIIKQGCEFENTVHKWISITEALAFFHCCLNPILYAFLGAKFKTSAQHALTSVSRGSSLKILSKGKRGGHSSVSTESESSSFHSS
# UniProt P00800, sequence (whole entry, looked up): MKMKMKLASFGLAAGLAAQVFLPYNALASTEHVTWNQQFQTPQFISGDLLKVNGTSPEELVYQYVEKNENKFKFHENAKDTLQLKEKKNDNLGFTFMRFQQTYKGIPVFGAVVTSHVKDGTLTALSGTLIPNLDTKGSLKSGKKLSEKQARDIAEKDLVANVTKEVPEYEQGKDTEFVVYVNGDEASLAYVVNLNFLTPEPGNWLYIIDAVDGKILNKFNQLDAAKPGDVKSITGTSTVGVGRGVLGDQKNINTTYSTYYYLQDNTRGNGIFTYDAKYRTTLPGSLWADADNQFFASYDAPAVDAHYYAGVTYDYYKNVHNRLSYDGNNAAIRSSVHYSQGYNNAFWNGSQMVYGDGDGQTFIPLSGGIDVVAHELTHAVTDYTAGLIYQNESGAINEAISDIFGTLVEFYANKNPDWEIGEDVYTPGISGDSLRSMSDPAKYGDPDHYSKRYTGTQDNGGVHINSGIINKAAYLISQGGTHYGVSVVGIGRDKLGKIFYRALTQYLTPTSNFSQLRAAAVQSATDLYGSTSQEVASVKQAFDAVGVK
# UniProt Q9UNQ0, sequence (whole entry, looked up): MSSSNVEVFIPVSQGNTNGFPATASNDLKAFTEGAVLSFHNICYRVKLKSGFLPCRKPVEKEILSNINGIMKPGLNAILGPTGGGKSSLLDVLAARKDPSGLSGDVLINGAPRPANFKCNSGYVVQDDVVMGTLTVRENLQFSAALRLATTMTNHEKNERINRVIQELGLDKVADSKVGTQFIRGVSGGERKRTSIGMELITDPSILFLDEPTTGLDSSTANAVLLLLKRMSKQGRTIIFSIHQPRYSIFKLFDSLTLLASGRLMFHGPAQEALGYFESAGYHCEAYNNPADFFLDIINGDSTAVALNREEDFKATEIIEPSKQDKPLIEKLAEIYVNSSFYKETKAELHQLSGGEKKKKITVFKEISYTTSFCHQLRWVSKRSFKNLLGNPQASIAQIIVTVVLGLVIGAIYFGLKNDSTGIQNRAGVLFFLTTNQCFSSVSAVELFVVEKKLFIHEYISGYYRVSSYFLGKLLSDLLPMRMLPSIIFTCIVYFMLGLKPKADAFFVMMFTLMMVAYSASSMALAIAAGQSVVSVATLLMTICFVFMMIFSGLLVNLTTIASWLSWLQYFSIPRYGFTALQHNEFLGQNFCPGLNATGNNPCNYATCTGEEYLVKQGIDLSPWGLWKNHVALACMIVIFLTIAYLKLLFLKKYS
Compound,target,test,test system,conditions,scale,quantity,result
CSc1nc2[nH]nc([N+](=O)[O-])c(=O)n2n1,SLCO1B3,"transport activity, item: OATP1B3",,100 µM,,inhibition,no inhibition
CC[C@@H](C)[C@@H](NC(=O)[C@@H](CCC(=O)O)NC(=O)[C@@H](CCC(=O)O)NC(=O)[C@@H](CCC(N)=O)NC(=O)C(C)(C)NC(=O)[C@@H](CCCCN)NC(=O)[C@H](NC(=O)[C@@H](Cc1ccccc1)NC(=O)C(C)(C)NC(=O)[C@@H](CC(=O)O)NC(=O)[C@@H](CCCCN)NC(=O)[C@@H](Cc1ccccc1)NC(=O)[C@@H](CC(N)=O)NC(=O)[C@@H](Cc1c[nH]cn1)NC(=O)[C@@H](CCC(=O)O)NC(=O)C(C)(C)NC(=O)[C@@H](CCC(=O)O)NC(=O)[C@@H](CC(=O)O)NC(=O)[C@@H](CC(C)C)NC(=O)[C@@H](Cc1ccccc1)NC(=O)[C@@H](Cc1ccc(O)cc1)NC(=O)[C@@H](CCC(N)=O)NC(=O)[C@H](N)CO)[C@H](C)O)C(=O)NCCOCCOCC(=O)NCCOCCOCC(=O)NCCOCCOCC(=O)N[C@@H](CS)C(N)=O,"Thermolysin (npr, Bacillus thermoproteolyticus, UniProt P00800)",RP-HPLC,,"240 min, pH 8, 50 °C, together with: thermolysin 15 µg/mL",,proteolytic stability,no effect
N=C(N)NCCC[C@@H]1NC(=O)[C@H](CCCNC(=N)N)NC(=O)[C@H](CCCNC(=N)N)NC(=O)[C@H](CCCNC(=N)N)NC(=O)[C@H](Cc2c[nH]c3ccccc23)NC(=O)[C@H](CCCNC(=N)N)NC(=O)[C@H](CCCNC(=N)N)NC(=O)[C@@H](N)CCn2cc(nn2)C[C@@H](C(N)=O)NC1=O,trypsin,"substrate, HPLC",,"pH 7.4, 37 °C",,complete degradation time,85 to 110 min
CNC(=O)Oc1cc(C)c([S+](C)[O-])c(C)c1 (centres unmarked),CYP3A4,inhibitor,,"10 µM, pH 7.4",,inhibition,9.1%
O=C(O)Cc1cccc(OC(=O)NCCCCCn2ccc3ccc(F)cc32)c1,"Albumin (ALB, Sus scrofa, UniProt P08835)",,porcine protein solution 17.5 mg/mL in PBS,"20 µM, 0.5 h, 37 °C",,remaining parent compound,> 95%
CN1C(=O)[C@@H](Cc2ccc(O)cc2)NC(=O)CNC(=O)[C@H](Cc2ccc3ccccc3c2)NC(=O)[C@H](CCCNC(=N)N)NC(=O)[C@H]1CCCNC(=O)c1ccc(CNC(=O)CN2CCN(CC(=O)O)CCN(CC(=O)O)CCN(CC(=O)O)CC2)cc1 [gallium-68 labelled],"C-X-C chemokine receptor type 4 (CXCR4, Homo sapiens, UniProt P61073)",PET imaging,"human, liver",,,SUVmax,2.99
Cc1cc(C)c(-c2cc(C)c(OP(=O)([O-])OCCC[C@H](C(=O)[O-])N3CCN(CC(=O)[O-])CCN(CP(=O)([O-])O)CCN(CC(=O)[O-])CC3)cc2C)c(C)c1.[Gd+3],"Albumin (ALB, Homo sapiens, UniProt P02768)","albumin binding, variable temperature NMRD fit",albumin-bound complex,"0.1 mM, pH 7.4, fit 5-35 °C data, together with: HSA 0.66 mM",,rotational correlation time,7 ns
[64Cu+2].c1ccc(CNCc2ccc(CN3CCCNCCNCCCNCC3)cc2)nc1,CXCR4,,"NOD/SCID mouse, U87 and U87-stb-CXCR4 xenografts, liver","iv, 90 min, no blocking dose, ex vivo",,tissue uptake,31.2 ± 1.49 %ID/g
CC[C@H](C)[C@H](NC(=O)[C@H](CC(C)C)NC(=O)[C@H](CC(N)=O)NC(=O)CNC(=O)[C@H](CO)NC(=O)[C@H](CC(C)C)NC(=O)[C@@H](NC(=O)[C@H](CC(C)C)NC(=O)[C@H](CCC(N)=O)NC(=O)[C@]1(C)CCCC=CCCC[C@](C)(NC(=O)[C@@H]2CCCN2C(=O)[C@H](CC(=O)O)NC(C)=O)C(=O)N[C@@H](CCCNC(=N)N)C(=O)N[C@@H](CC(C)C)C(=O)N[C@@H](CC(C)C)C(=O)N1)C(C)C)C(=O)N[C@@H](CCCCN)C(=O)N[C@@H](CCC(=O)O)C(=O)N[C@@]1(C)CCCC=CCCC[C@@](C)(C(=O)N[C@@H](Cc2c[nH]cn2)C(=O)N[C@@H](CO)C(=O)N[C@@H](CCCNC(=N)N)C(N)=O)NC(=O)[C@H](CCCNC(=N)N)NC(=O)[C@H](CCCNC(=N)N)NC(=O)[C@H](C(C)C)NC1=O,"Chymotrypsinogen A (Bos taurus, UniProt P00766)","proteolytic stability, substrate",,"100 µM, 24 h, pH 7.4, together with: Chymotrypsinogen A 5 ng/mL",,remaining peptide,no effect
CC[C@H](C)[C@H](NC(=O)[C@H](C)NC(=O)[C@H](C)NC(=O)[C@H](C)NC(=O)[C@H](Cc1c[nH]cn1)NC(=O)[C@H](CCCCN)NC(=O)[C@H](C)NC(=O)[C@H](C)NC(=O)[C@H](C)NC(=O)[C@H](CCC(=O)O)NC(=O)[C@H](CCCCN)NC(=O)[C@H](C)NC(=O)[C@H](C)NC(=O)[C@H](C)NC(=O)[C@H](CCC(=O)O)NC(=O)[C@H](C)NC(C)=O)C(=O)N[C@@H](C)C(=O)N[C@@H](C)C(=O)N[C@@H](CS)C(=O)N[C@@H](C)C(N)=O,trypsin,proteolysis resistance,,"4 °C, unit not given",baseline: metal-free HCM,stability enhancement,0.8
N=C(N)NCCC[C@H](NC(=O)[C@H](Cc1c[nH]c2ccccc12)NC(=O)[C@H](CCCCN)NC(=O)[C@H](CCCNC(=N)N)NC(=O)[C@H](Cc1c[nH]c2ccccc12)NC(=O)[C@H](CCCCN)NC(=O)[C@H](CCCNC(=N)N)NC(=O)[C@H](Cc1c[nH]c2ccccc12)NC(=O)[C@H](CCCCN)NC(=O)[C@H](CCCNC(=N)N)NC(=O)[C@@H](N)Cc1c[nH]c2ccccc12)C(=O)N[C@@H](CCCCN)C(N)=O,trypsin,RP-HPLC,,"6 h, 37 °C",,remaining peptide,< 10%
CC(CCC(=O)NCC(=O)O)C1CCC2C3C(O)CC4CC(OC5OC(C(=O)O)C(O)C(O)C5O)CCC4(C)C3CCC12C (centres unmarked),SLCO1B3,"transporter uptake, inhibitor",,,,IC50,> 100 µM
Cc1cc(C)c(-c2cc(C)c(OP(=O)([O-])OCCC[C@H](C(=O)[O-])N3CCN(CC(=O)[O-])CCN(CC(=O)[O-])CCN(CC(=O)[O-])CC3)cc2C)c(C)c1.[Gd+3],"Albumin (ALB, Homo sapiens, UniProt P02768)",variable temperature NMRD,HSA-bound complex,,,ZFS modulation correlation time,18 ps
C[C@@H](O)[C@H](NC(=O)[C@@H]1CCCN1C(=O)CNC(=O)[C@@H]1CC(=O)NCC(=O)N[C@H]2Cc3cn(c4ccccc34)-c3cc(ccc3O)C[C@H](NC2=O)C(=O)NCC(=O)N[C@@H](CO)C(=O)N[C@@H](CCC(N)=O)C(=O)N[C@@H](Cc2c[nH]c3ccccc23)C(=O)N1)C(=O)NCC(=O)N[C@@H](CCC(N)=O)C(=O)N[C@@H](CCCNC(=N)N)C(=O)N[C@@H](CC(=O)O)C(=O)O,chymotrypsin,HPLC-MS,,"4 h, pH 8.5, 25 °C",,proteolytic stability,no effect
CC(C)(O)c1ccccc1CC[C@H](c1cccc(/C=C/c2ccc3ccc(Cl)cc3n2)c1)S(=O)(=O)CC1(CC(=O)O)CC1,CYP3A4,,human liver microsomes,"10 µM, pH 7.4, together with: midazolam",,inhibition,32.8%
Cc1c(NC(=O)c2ccc3c(c2)CC[C@@H]2C[C@@](O)(C(F)(F)F)CC[C@@]32Cc2ccccc2)ccc[n+]1[O-],"CYP3A4/5, human","inhibitor, time-dependent inhibition, item: 1'-hydroxymidazolam formation",pooled human liver microsomes,together with: midazolam 23 µM,,kinact,0.027 min⁻¹
CC(C)(O)c1ccccc1CC[C@H](c1cccc(/C=C/c2ccc3ccc(Cl)cc3n2)c1)[S+]([O-])CC1(CC(=O)O)CC1 (some centres unmarked),CYP3A4,inhibitor,,"10 µM, pH 7.4",,inhibition,6.67%
O=C(NC(CSC(Cc1ccccc1)C(=O)NCCCc1cccnc1)Cc1c[nH]c2ccccc12)c1cccnc1 (centres unmarked),CYP3A4,"enzyme activity, inhibitor",,,,IC50,0.2 µM
CCCCCC1=C(NCC)C(=O)C(C/C=C(\C)CCC=C(C)C)=C(O)C1=O,"Broad substrate specificity ATP-binding cassette transporter ABCG2 (ABCG2, Homo sapiens, UniProt Q9UNQ0)","transport, inhibitor",,up to 22.5 µM,,inhibition,89%
O=C1Cc2cc(CCN3CCN(C4=NS(=O)(=O)c5ccccc54)CC3)c(Cl)cc2N1,CYP3A4,inhibitor,,"2 µM, pH 7.4",,inhibition,< 0%
CC(C)C[C@H](NC(=O)[C@H](C)NC(=O)[C@H](CC(C)C)NC(=O)[C@@H](NC(=O)CNC(=O)[C@H](CC(C)C)NC(=O)[C@@H](N)Cc1ccccc1)C(C)C)C(=O)N[C@@H](CC(C)C)C(=O)NCC(=O)N[C@@H](Cc1ccc(O)cc1)C(=O)N[C@@H](CC(C)C)C(=O)N[C@@H](C)C(=O)N[C@H](C(=O)N[C@@H](CCCNC(=N)N)C(=O)N1CCC[C@H]1C(=O)N[C@@H](Cc1ccccc1)C(=O)N[C@@H](CC(C)C)C(=O)N1CCC[C@H]1C(=O)N[C@@H](CCCCN)C(=O)N[C@@H](CCCCN)C(=O)N[C@@H](CCCCN)C(=O)N[C@@H](CCC(N)=O)C(=O)N[C@@H](CCC(N)=O)C(=O)N[C@@H](CCCCN)C(N)=O)C(C)C,trypsin,"proteolytic stability, analytical HPLC",,"450 µM, 22 °C, together with: trypsin 0.001 mg/mL",,time to full cleavage,400 min
CCCS(=O)(=O)c1ccc2[nH]c(NC(=O)OC)nc2c1,CYP3A4,inhibitor,,"10 µM, pH 7.4",,inhibition,21.4%
Cn1cc(-c2cccc(CN3CCC4(CC3)COc3c4ccc4c3CN([C@H]3CCC(=O)NC3=O)C4=O)c2)cn1,"Voltage-gated inwardly rectifying potassium channel KCNH2 (KCNH2, Homo sapiens, UniProt Q12809)","ion current, inhibitor, manual patch clamp",,,,IC30,18 µM

# Repeated from above:
Compound,target,test,test system,conditions,scale,quantity,result
CC(C)(O)c1ccccc1CC[C@H](c1cccc(/C=C/c2ccc3ccc(Cl)cc3n2)c1)[S+]([O-])CC1(CC(=O)O)CC1 (some centres unmarked),CYP3A4,inhibitor,,"10 µM, pH 7.4",,inhibition,6.67%
O=C(NC(CSC(Cc1ccccc1)C(=O)NCCCc1cccnc1)Cc1c[nH]c2ccccc12)c1cccnc1 (centres unmarked),CYP3A4,"enzyme activity, inhibitor",,,,IC50,0.2 µM
CCCCCC1=C(NCC)C(=O)C(C/C=C(\C)CCC=C(C)C)=C(O)C1=O,"Broad substrate specificity ATP-binding cassette transporter ABCG2 (ABCG2, Homo sapiens, UniProt Q9UNQ0)","transport, inhibitor",,up to 22.5 µM,,inhibition,89%
